Results gathered from unrelated publications.
Lines come from different studies, so protocols differ. ± marks the error that the study gave.

CCN1C(=O)C=CC1=O — half-time of inhibition (TTX-resistant Na channel (sheep heart); 33 mM, room temperature): ~25 min
pinnatoxin G — IC50 (nicotinic acetylcholine receptor (Torpedo marmorata); binding; methanol standard, together with: biotin-α-bungarotoxin 80 nM): 20.1 ± 13.3 nM
COP(=O)(OC)OC=C(Cl)Cl — ED50 (acetylcholinesterase, mouse; enzyme activity, inhibitor, modified Ellman method; Mus musculus, serum; sc, 1 h): 9.43 mg/kg
CCOC(=O)OC(=O)OCC — specific [3H]saxitoxin binding abolished (TTX-sensitive Na channel (rat brain); rat brain membranes; 10 mM, 1 h, pH 5.5 or 7.5, room temperature): > 50%
O=[As]c1ccccc1 (stereo not drawn) — Y2 receptor density change (rat Y2 receptor; rat brain particulates; 30 µM; baseline: control): ≤ 15%
CCOP(=O)(OCC)Oc1ccc([N+](=O)[O-])cc1 — Km (recombinant PON1 variant, gene-shuffled, mainly rabbit; enzymatic hydrolysis, substrate; pH 7.4, 1% methanol): 900 ± 200 µM
nitric oxide — koff (Clostridium botulinum H-NOX Y139F; dissociation, sequential stopped-flow; six-coordinate heme-His complex): 0.005 s⁻¹
Nc1ncnc2c1ncn2[C@@H]1O[C@H](COP(=O)(O)OP(=O)(O)OP(=O)(O)O)[C@@H](O)[C@H]1O — kcat decrease (nicotinamide mononucleotide adenylyltransferase R133A, His-tagged; substrate; baseline: R133A over wild type): 40 fold
pinnatoxin A — Hill slope (nicotinic acetylcholine receptor (Torpedo marmorata); binding; together with: biotin-α-bungarotoxin): 1.31 ± 0.21
O=C([O-])c1ccc[n+]([C@@H]2O[C@H](COP(=O)(O)O)[C@@H](O)[C@H]2O)c1 — K0.5 increase (nicotinamide mononucleotide adenylyltransferase R133A, His-tagged; substrate; baseline: R133A over wild type): 64 fold
carbon monoxide — koff (Clostridium botulinum H-NOX Y139F; dissociation, NO displacement): 1.1 s⁻¹
13,19-didesmethyl spirolide C — IC50 (nicotinic acetylcholine receptor (Torpedo marmorata); binding; Pecten maximus extract 25 mg/mL, together with: biotin-α-bungarotoxin): 2.57 ± 1.06 nM

Excerpt of the above:
nitric oxide — koff (Clostridium botulinum H-NOX Y139F; dissociation, sequential stopped-flow; six-coordinate heme-His complex): 0.005 s⁻¹
